Assay results from different studies.
Parts stem from different laboratories: compare values within a part only. Substitutions count along the parent as printed.

Study 1 — method: protein binding microarray; molecule type: double-stranded DNA, one strand shown; sample: in vitro; concentration: not given; baseline: not given; reading: higher = stronger binding
Target: Histone acetyltransferase KAT6A, winged helix 1, GST fusion (KAT6A, Homo sapiens, UniProt Q92794, residues 1-85)
Notes: 8-mer, flanks averaged, mean of 2 arrays, mostly near background
Construct (chain): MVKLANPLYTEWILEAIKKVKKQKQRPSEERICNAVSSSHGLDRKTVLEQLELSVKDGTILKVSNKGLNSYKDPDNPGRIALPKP
The E-score of `AACCTGTG` is reported as -0.274.
The E-score of `GAACTTAA` is reported as -0.189.
With `CGGGCACC` the E-score was 0.299.
For `AGGCTCGG`, the E-score was -0.0362.

Study 2 — target: CCND3, cyclin fold, Cln2 fusion (human); method: yeast growth competition, sequencing; sample: yeast; notes: weak parent motif; baseline: not given; reading: higher = stronger binding
Starting sequence: WEE1 docking peptide (human); HKTFRKLRLFDTP; partner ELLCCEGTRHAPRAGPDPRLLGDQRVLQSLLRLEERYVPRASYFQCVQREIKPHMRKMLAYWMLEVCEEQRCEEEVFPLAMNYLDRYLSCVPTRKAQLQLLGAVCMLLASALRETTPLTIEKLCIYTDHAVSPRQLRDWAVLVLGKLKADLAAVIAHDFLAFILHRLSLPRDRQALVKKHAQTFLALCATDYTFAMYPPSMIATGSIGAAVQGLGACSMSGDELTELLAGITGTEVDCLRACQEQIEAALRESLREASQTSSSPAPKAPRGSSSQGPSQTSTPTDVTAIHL
`K2N`: “normalised enrichment score” 0.174.
For `F4P`, “normalised enrichment score” read 0.159.
`T3C`: “normalised enrichment score” 0.0502.
`K2E` — result for “normalised enrichment score”: 0.112.

Study 3 — method: RNA Bind-n-Seq; molecule type: RNA; sample: in vitro; concentration: 1 µM; notes: whole 134-nt RNA, ends assumed; with: 150 mM KCl; baseline: input library; reading: higher = stronger binding
Target: Ras GTPase-activating protein-binding protein 1, C-terminal RGG region (G3BP1, Homo sapiens, UniProt Q13283)
Sequence of UniProt Q13283 (whole entry, looked up): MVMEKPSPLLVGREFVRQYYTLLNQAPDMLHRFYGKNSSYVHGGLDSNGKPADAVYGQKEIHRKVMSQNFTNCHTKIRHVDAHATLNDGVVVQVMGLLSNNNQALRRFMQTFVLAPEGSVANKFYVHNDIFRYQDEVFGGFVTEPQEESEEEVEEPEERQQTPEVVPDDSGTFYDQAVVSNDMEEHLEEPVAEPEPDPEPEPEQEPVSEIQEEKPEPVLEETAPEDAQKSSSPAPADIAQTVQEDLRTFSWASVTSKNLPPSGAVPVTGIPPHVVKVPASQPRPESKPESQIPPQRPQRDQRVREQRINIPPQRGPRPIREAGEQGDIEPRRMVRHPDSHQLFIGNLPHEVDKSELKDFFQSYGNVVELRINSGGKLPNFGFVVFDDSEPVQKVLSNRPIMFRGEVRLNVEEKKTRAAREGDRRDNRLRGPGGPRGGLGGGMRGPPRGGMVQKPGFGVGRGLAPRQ
For `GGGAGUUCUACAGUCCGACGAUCUGGGAGGUGGAUUUUGUUUAUUUUUUUAGCUCAUUUCCAGGGGUGGGAAUUUUUUUCUAAUAUGUGUCAUGAAUAAAGUUGUUUUUGAAAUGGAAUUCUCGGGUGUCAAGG`, the log2 enrichment was 2.59.
`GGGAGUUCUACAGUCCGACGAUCAGUCCUGUGCUACACAUCGUAUGUACCGAAUCGGGGCCCCGGGGCCCCGGGCCCCGGGAAAGUAUUAUGUUACGCCGUUCGGAUCUGCACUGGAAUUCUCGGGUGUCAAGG` gave a log2 enrichment of -1.93.
The log2 enrichment of `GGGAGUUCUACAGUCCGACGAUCUCAAGUCCUGUGCUACACAUCGUAUGUACCGAAUCGGCCGGGGCCGGGCCGGGGAAAGUAUUAUGUUACGCCGUUCGGAUCUGCACUUCCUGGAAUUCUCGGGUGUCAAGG` is reported as -1.09.
For `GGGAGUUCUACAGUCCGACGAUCGUCCUGUGCUACACAUCGUAUGUACCGAAUCGGGGCCCCCGGGCCCCCGGCCCCCGGGGAAAGUAUUAUGUUACGCCGUUCGGAUCUGCAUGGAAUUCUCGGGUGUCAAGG`, the log2 enrichment was -1.45.
The log2 enrichment of `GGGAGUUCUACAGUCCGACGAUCCCUGUGCUACACAUCGUAUGUACCGAAUCGGGAAAAAAGGAAAAAAGGGGAAAAAAGGGGAAAGUAUUAUGUUACGCCGUUCGGAUCUGCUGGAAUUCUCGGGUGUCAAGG` is reported as -1.68.

Further values, each from its own experiment
For `PhoQ, residues 284 288 289 292 302 303 GANMMA`, the fold induction was 0.489 (PhoP, residues 12 14 15 18 19 SGWQI (Escherichia coli, UniProt P23836); Sort-seq, item: YFP reporter; E. coli; PhoQ-PhoP variant library, with: 10 µM Mg2+; baseline: high Mg2+ state, higher = stronger signaling).
